Experimental data gathered from unrelated publications.
Each line is one published result; not all experiments were run side by side. Numbers after ± are the reported error.

For `OC[C@H]1[C@@H](O)[C@@H](O)CN1Cc1ccc(Br)cc1`, the CC50 was greater than 200 µM (BJ; MTS; 72 h).
`O=C(CCN(CCC(=O)NC(Cc1c[nH]c2ccccc12)C(=O)O)C(=O)C1CC(C(=O)N(CCC(=O)NC(Cc2c[nH]c3ccccc23)C(=O)O)CCC(=O)NC(Cc2c[nH]c3ccccc23)C(=O)O)CC(C(=O)N(CCC(=O)NC(Cc2c[nH]c3ccccc23)C(=O)O)CCC(=O)NC(Cc2c[nH]c3ccccc23)C(=O)O)C1)NC(Cc1c[nH]c2ccccc12)C(=O)O` (stereo not drawn) gave a CC50 of greater than 100 µM (MT4; 5 (unit not given)).
`COc1cc(CN2CCN(c3ccc(C(F)(F)F)cc3)CC2)c2cc3[n+](cc2c1O)CCc1cc2c(cc1-3)OCO2` has a CC50 of 118 µg/mL (MDCK; cell growth or viability, SRB; 48 h).
`CCC(=O)C[C@@H](O)C[C@@H](C)C[C@H](NC(=O)[C@@H]1C[C@H](C)CN1C(=O)/C=C/[C@@H](C)CC)C(=O)N[C@H](C(=O)NC(C)(C)C(=O)N[C@@H](CC(C)C)C(=O)N[C@@H](CC(C)C)C(=O)NC(C)(C)C(=O)NC(C)(C)C(=O)NCCC(=O)N[C@@H](C)CN(C)C)[C@H](O)C(C)C` gave a CC50 of greater than 1.5 µM (C2C12; cell growth or viability, imaging; 72 h).
The CC50 of `COc1cc(CN2CCN(c3ccc(C)cc3)CC2)c2cc3[n+](cc2c1O)CCc1cc2c(cc1-3)OCO2` is reported as 142 µg/mL (MDCK; cell growth or viability, SRB; 48 h).
`CC1=CCC[C@H](C)[C@@]12CC[C@@H](C(C)(C)O)C2` gave a CC50 of 181 µg/mL (MDCK; cell growth or viability, MTT; 72 h).
`COc1cc(CN2CCN(c3ccc(Cl)cc3)CC2)c2cc3[n+](cc2c1O)CCc1cc2c(cc1-3)OCO2` has a CC50 of 194 µg/mL (MDCK; cell growth or viability, SRB; 48 h).
For `Cc1cc(Oc2c(C(F)(F)F)ccn(Cc3n[nH]c(=O)n3C)c2=O)c2cccc(Cl)c2n1`, the CC50 was 233 µM (MT4; cell growth or viability, MTT).
For `COc1ccc(Nc2c(C#N)cnc3ccc(Cl)cc23)cc1`, the CC50 was greater than 100 µM (mouse primary embryonic cardiomyocytes; resazurin; 72 h).
The CC50 of `Cc1ncnc2c1c(C1=CCSCC1)cn2[C@@H]1O[C@H](CO)[C@@H](O)[C@H]1O` is reported as greater than 64 µM (MRC-5 SV2; cell growth or viability, resazurin; 72 h).
With `COc1cc(CN2CCN(c3ccccc3F)CC2)c2cc3[n+](cc2c1O)CCc1cc2c(cc1-3)OCO2` the CC50 was 126 µg/mL (MDCK; cell growth or viability, SRB; 48 h).
For `Cn1c(C(F)(F)F)c(-c2ccccc2)c(=O)n1-c1ccccc1`, the CC50 was 789 ± 57 µM (MDCK; MTT; 72 h).
